Published values from different studies.
Each numbered part is a random draw from the data of one study; scales do not carry over between parts.
Sequence of UniProt P18089 (whole entry, looked up): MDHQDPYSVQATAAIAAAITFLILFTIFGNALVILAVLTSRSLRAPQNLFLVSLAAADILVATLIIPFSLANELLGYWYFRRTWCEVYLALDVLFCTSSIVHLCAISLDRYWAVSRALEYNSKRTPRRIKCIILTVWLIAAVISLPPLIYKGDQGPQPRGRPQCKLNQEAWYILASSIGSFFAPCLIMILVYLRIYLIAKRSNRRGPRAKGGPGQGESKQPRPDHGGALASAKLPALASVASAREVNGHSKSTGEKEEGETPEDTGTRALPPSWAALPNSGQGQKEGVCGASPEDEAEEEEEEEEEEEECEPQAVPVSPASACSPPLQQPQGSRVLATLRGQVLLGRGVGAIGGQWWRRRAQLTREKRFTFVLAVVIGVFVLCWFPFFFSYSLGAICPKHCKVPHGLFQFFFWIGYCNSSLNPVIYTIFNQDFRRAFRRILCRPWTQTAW
Sequence of UniProt P08173 (whole entry, looked up): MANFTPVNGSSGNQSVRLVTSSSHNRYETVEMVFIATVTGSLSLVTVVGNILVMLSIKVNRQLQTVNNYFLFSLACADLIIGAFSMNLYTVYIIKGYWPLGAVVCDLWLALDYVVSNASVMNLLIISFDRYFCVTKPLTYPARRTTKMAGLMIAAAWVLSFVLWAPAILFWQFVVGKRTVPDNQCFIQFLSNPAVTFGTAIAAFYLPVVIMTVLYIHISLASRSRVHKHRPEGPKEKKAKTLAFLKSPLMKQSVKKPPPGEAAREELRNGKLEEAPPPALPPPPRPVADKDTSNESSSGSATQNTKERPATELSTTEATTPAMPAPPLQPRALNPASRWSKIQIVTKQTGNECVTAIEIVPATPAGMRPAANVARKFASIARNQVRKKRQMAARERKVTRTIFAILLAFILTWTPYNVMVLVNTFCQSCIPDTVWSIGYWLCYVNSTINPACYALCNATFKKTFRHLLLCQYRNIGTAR
Sequence of UniProt P50406 (whole entry, looked up): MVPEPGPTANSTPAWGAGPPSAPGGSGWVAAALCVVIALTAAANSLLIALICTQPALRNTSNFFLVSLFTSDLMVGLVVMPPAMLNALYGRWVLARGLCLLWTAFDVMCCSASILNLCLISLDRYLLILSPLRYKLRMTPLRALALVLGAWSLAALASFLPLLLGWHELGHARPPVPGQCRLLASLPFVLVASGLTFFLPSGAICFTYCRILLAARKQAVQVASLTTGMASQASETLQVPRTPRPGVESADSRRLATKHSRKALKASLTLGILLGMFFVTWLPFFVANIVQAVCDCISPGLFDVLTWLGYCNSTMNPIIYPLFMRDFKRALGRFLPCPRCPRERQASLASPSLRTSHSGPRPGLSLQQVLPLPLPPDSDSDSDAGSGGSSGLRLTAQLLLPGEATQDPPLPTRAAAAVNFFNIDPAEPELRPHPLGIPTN

Series 1 — effect on: cell-free assay; concentration: 10 µM
Compound: C[C@@H](NC(=O)Nc1cc2[nH]ncc2c(CO)n1)c1ccccc1
target	inhibition [%]
ADRA2B (Homo sapiens, UniProt P18089)	-1.5
CHRM4 (Homo sapiens, UniProt P08173)	-0.568
HTR6 (Homo sapiens, UniProt P50406)	8.67

Series 2 — technique: RNAcompete; molecule type: RNA; medium: in vitro; concentration: 20 nM; notes: 7-mer, probes averaged, single round; baseline: mean of 7-mers; direction: higher = stronger binding
Target: PABPC1L2, full length, GST fusion (mouse, UniProt A0ABA7IW68)
Target sequence (chain): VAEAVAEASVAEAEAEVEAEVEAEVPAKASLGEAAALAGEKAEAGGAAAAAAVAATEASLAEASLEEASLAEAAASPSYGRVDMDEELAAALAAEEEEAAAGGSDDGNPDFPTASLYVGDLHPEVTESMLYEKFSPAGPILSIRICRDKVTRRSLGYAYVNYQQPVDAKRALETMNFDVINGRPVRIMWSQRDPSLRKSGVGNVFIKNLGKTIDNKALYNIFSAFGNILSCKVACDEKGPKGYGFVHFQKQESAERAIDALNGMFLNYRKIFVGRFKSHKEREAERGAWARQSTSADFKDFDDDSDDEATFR
Sequence	7-mer Z-score
CACUUUG	-0.331
UAUCGAU	-0.139
ACAACAC	0.296
CAAAAUC	1.02
ACCCUGU	-0.246
UCAUUAA	0.066
AAUCCAA	0.274
GGCCGAG	0.0406

Series 3 — effect on: enzyme activity; action: inhibitor; concentration: 0.5 µM; baseline: control
Target: Interleukin-1 receptor-associated kinase 4 (IRAK4, Homo sapiens, UniProt Q9NWZ3)
Sequence of UniProt Q9NWZ3 (whole entry, looked up): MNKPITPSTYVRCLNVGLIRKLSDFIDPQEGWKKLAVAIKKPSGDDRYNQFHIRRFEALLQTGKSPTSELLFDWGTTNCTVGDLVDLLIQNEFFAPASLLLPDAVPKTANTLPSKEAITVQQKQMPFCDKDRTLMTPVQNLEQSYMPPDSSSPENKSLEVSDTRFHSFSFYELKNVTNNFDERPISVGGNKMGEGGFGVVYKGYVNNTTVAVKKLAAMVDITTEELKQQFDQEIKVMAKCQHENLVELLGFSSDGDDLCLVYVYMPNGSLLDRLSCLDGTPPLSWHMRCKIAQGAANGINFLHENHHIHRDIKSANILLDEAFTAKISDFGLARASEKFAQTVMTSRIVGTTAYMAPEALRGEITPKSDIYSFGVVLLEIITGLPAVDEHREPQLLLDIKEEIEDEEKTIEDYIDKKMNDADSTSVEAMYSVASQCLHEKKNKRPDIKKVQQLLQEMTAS
Structure (SMILES)	remaining activity
NCCNc1ncc(C(N)=O)c(Nc2cccc(C(F)(F)F)c2)n1	91.2%
Cn1c2ccccc2c2c3c(c4c5ccccc5n(CCC#N)c4c21)CNC3=O	63.5%
Cc1cccc(-c2[nH]c(C(C)(C)C)nc2-c2ccc3c(c2)OCO3)n1	86.8%
O=C(Nc1cccc(Nc2cc(Nc3cccc(C(F)(F)F)c3)ncn2)c1)C1CC1	104%
O=c1c2ccccc2[nH]c(=S)n1CCN1CCC(=C(c2ccc(F)cc2)c2ccc(F)cc2)CC1	105%
Cn1sc(=O)n(Cc2ccccc2)c1=O	107%
CC(C)[C@H](CO)Nc1nc(Nc2cc(N)cc(Cl)c2)c2ncn(C(C)C)c2n1	86.8%
O=C1NC(=O)C(c2cn(CCCn3ccnc3)c3ccccc23)=C1Nc1ccccc1	89.5%
Cc1ccc(NC(=O)c2ccc(CN3CCN(C)CC3)cc2)cc1Nc1nc(-c2cccnc2)cs1	97.4%
N#CC(C#N)=C(N)/C(C#N)=C/c1ccc(O)cc1	92.6%
COc1ccc(C(=O)Nc2sc3c(c2C(N)=O)CCCC3)cc1OC	94.8%
Oc1ccc(-c2nc(-c3ccncc3)c(-c3ccc(F)cc3)[nH]2)cc1	124%
O=C(O)c1ccc2c3c1cccc3c(=O)n1c3ccccc3nc21	107%

Series 4 — technique: RNA Bind-n-Seq; molecule type: RNA; medium: in vitro; concentration: 20 nM; notes: 6-mer, flanks averaged, single round; added: 150 mM LiCl; baseline: input library; direction: higher = stronger binding
Target: TAR DNA-binding protein 43, full length, His tag (TARDBP, Homo sapiens, UniProt Q13148, residues 1-414)
Sequence	6-mer enrichment (R)
UGCCCA	1
CUAAAG	0.846
UUGCAC	0.952
GUAGCG	1.09
CCCUAA	0.976
AACCAG	0.849
GUCCCC	1.22
ACCCGG	0.939

For quick reference, copied from above (series 2):
Sequence	7-mer Z-score
CAAAAUC	1.02
ACCCUGU	-0.246
UCAUUAA	0.066
